Assay results collected from several papers.
A part holds a random share of what one study measured. Positions count from the first letter of the parent shown.

Sample 1
Target: RNA binding protein fox-1 homolog 2, RRM domain, GST-SBP tag (RBFOX2, Homo sapiens, UniProt O43251-10, residues 100-194)
Method: RNA Bind-n-Seq
Form: RNA
Medium: in vitro
Tested at: 365 nM
Notes: natural RNA segment, single round, ends assumed
Relative to: no-protein control
Reading: higher = stronger binding
Endpoint: RBNS enrichment (R)
Residues (chain): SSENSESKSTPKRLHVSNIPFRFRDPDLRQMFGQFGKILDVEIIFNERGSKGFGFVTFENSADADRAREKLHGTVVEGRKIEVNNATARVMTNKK
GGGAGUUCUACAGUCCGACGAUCCCUUCUAAAGUGAAAGUGAUGUUAGUUAAGUUAUUAUUGGUUUGUUGCCACCUGGUACCUUAAACUCGGUGGCUAUUCCCAUUGCUGUGUUUUAUUUGUAUAGUCUUACGUGGAAUUCUCGGGUGCCAA: 0.31
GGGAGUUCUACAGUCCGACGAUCUUUGGAUGUGUGCUUUAAUUCAGCUUUAGAAAUUAAUACCACUACCCGUGAAUUAUAUGGCCUGACAAUAUGAAUUAGGUGUACUGUACUGAAGAACAGUACUCCACAAAUGGAAUUCUCGGGUGCCAA: 0.636
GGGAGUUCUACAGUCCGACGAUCACUUUAUGAAGGGGCGUUUUUAAGUUGUUUAGCAGUGACAUUUAAUAUGGUCCAAUUGCUUUUCUUUUUAACAUGACAAACAAUUUUAAAAGAGACUAAGGAACAAACACUGGAAUUCUCGGGUGCCAA: 0.244
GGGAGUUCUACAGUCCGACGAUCAGUCCCCAUCCGCUCAGUCAUCUUACCCUGUGACUGCUCUCAGCCCUGAAGAAUCCACAACCAUCCUUCCAAGGUUCUCCAUCCCCACAAUGACUAGCUGUUGCUCUCCAUGGAAUUCUCGGGUGCCAA: 0.709
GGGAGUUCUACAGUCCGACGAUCAAAUUAUGCCACUUUCCUAUAGUUUCUGUGUUCUGUUUAUUGUAUGGUGUAUUCACUCUUGGAAAAUAUGUAAUAGUUGUGUAUCCAGAAUAUGUGUCUUCACCUGAAUAUGGAAUUCUCGGGUGCCAA: 0.745
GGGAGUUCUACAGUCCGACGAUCAGUUUAAGUUAUAGGGCAUUUGGCUCAAAUUUUAAAAGGCCUUUUGUUUACCUAUAUUUCUGGAGGCUCCUGUAUUCUAGAACCCAAUCUCUCACCUGCUUGGUUGCAAGUGGAAUUCUCGGGUGCCAA: 0.34
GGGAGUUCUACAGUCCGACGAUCUAGAGGACAUCUCGGUCGUUUGAGGGGCAUGGCCAGUCGUGGCAGGCCGGCCUUCAGCGUCCGGUCAGGGAAGCGUGCAGCCCAAAUGGGCACUUGCAUGGGAGCCACAGUGGAAUUCUCGGGUGCCAA: 0.847
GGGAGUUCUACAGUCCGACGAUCGCGCCUCCUGCGGCCCCUCCAGUGCUGUCCCUCCGCUGUCUAGCAGCCCUAGGGGCGUGUCAGCCGCACCUCUGGGACGGGCCCUUCCUUGCGGUGCUGCCGUCCUUUUGUGGAAUUCUCGGGUGCCAA: 0.369
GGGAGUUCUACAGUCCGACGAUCGGCUCUGCCGUGCUAAUCUUCAACGUCCAUGUCAUUGACUUCCACAACCCUGCGGAUGUGGUGGAAAUCAGGACACUGUCCCGGCCAUCUGAGACCUGCAAUGAGACCACUGGAAUUCUCGGGUGCCAA: 0.247
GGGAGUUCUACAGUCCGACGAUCUCGUUUGGAAGGAAAGCUGGGUAACGUUUUGGGCACAGGGGAAGGAGGACUCCGGUCUUAACUCCCACGCUAACUUUAGCUCAAGUGGAGUUUUCACCGUGGUCAUUUCUUGGAAUUCUCGGGUGCCAA: 0.484
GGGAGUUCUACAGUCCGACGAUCGGCUGAGAUCAAUAAAUUUAACACUAGACGAAGUAGACUUCCUGUCUUUUUGAGAAGAGAUGAGGUAUAUGUUACAAUAAAUCUCAGAACUUCAAGUAGCAGUUCAAAAGUGGAAUUCUCGGGUGCCAA: 0.401
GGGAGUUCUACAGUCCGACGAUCUCCAACUCCUGGCAAUCCUCCUGCCUCUGUUUCUCAGUUGCUCUGACAACAGGUGUGUACCACCACUCCUGACUUCCCUGCCCAAACUUCAUAUCCUACUUGUUAAUAGCUGGAAUUCUCGGGUGCCAA: 0.492

Sample 2
Target: RING finger protein unkempt homolog, zinc fingers 1-6, GST-SBP tag (UNK, Homo sapiens, UniProt Q9C0B0, residues 30-357)
Method: RNA Bind-n-Seq
Form: RNA
Medium: in vitro
Tested at: not given
Notes: RNA with constant flanks, ends assumed
Relative to: input RNA pool
Reading: higher = stronger binding
Endpoint: bound/input enrichment
Target sequence (chain): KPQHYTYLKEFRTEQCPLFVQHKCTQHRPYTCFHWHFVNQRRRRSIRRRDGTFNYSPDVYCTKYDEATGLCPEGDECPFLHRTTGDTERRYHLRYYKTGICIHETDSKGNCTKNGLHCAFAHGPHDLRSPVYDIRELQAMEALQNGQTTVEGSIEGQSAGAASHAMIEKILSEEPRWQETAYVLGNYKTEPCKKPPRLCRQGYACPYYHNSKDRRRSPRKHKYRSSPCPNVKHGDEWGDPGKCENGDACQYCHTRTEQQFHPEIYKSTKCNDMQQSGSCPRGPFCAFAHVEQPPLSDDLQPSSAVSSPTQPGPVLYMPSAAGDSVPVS
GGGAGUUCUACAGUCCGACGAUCGCCGGCAUAGAUGGGGUGGUUAGUAUGAGGUUCAAGGUGAAAAGAUCAGAAUACUGAGAGCCGAGUGCCAAAGGGGAAGGGAGACAGAAGCAAGGGAAAUAAAUGACACUAAUAAUGAAACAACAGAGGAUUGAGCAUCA: 1.06 ratio
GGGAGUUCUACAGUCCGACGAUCCAUGCAUUUUAUUGGGGAGGGGAGGUCAGAAUAAUUCACCCAAAUCUAGUGGUCUUAUUUCACCGGCUAAUCUGGUUUAUAUUUGCAUUAAAGAUACUGGAGGGCAAUAUUUACAGAGUUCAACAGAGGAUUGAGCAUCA: 0.927 ratio
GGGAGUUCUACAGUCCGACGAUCACCUGGGGCAUUCAGCCAGCGCCCAUGCCUGUGCCUGUGUGGGUGAUCAUUUUAGCAGUUCCCGCAGGAUUGUUGCUACUGGCUGUUUUGGUAUUUGUAAUGUACAGGAUGGGCUUUUUUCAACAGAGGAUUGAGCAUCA: 0.406 ratio
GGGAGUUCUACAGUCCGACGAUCAAGGAGCCGGUGCUGGUGGUGUCCUUCUCUGUCUGGGGCCUCGCUAUAAUUAUGCCCAUGAUCCGCCCCUACACCAAGUAUGCUAGCAUGAUCAACAAGGCCACACCCUACAACUACCCACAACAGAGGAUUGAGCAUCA: 0.132 ratio
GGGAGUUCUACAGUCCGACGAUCGCAGAUGCUGAGGUUGCCAGGAGGAAAUCAGUCCCAUCAGAGACUGUGGUUGAGGACCGUCGUACUGGCUUGCCCCCGGUAACUGAUGAAAACCAUGUCAUUGUAAAAACGGACAGUCAGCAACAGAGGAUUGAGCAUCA: 0.0855 ratio
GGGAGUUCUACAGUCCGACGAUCAACAAAUACUGGCCCCUCUUUGUUCUAUUUUUUUACAUCCUUUCACCUAUUCCAUACUGCACCGCAAGAAGAUUAGUGGAUGAUACAGAUGCUAUGAGUAACGCUUGUAAGGAACUUGCCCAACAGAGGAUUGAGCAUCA: 0.312 ratio
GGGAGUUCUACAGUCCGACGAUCAUUUUAGCUCUGAUCUCACUCUUCAGUAUUCCUGUUAUAUAUGAACGGCAUCAGGCGCAGACCGAUCAUUAUCUAGGACUUGCAAACAAGAGCGUUAAGGAUGCCAUGGCCAAAAUCCAACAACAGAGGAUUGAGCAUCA: 0.318 ratio
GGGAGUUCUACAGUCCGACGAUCGUUAAGAGAAGACUAUGGAGCUGUACGAGUCAACGUAUUUUGUUGUCCUCAUCCCUUCAGCCGUUAUUACCGUCAUUUUCCUUUUCUUCUGGCUUUUCAUGAAAGAAACAUUAUAUGAUGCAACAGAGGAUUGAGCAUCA: 0.298 ratio
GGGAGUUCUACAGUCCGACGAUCGAGCAACGGAGAGCCCCACUUUCUACCAGAUGCAAUGUUUGGGCAACCAGGAGCCCCCGGCCGCACUCCAUUUCUUGGUCAGCAUGGUUUUAAUUUUUUUCCCAGUGGGAUUGACUUCUCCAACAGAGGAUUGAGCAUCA: 0.252 ratio
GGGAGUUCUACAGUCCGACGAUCGCAUCUCCCUGCUCCCCUCAACCCCCUCCCACCCCAUCCACGCCCCCUACCUUUCCCAAUUUCCGUUUCAUGCAAUAAAAAGGCCAAACUUUUUAUUCCAUAAAACAAGAAGGACAAAACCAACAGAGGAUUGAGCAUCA: 1.32 ratio
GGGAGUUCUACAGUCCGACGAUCCAUGUAGGAGCAAAGGCUGUCAUGUCUGUUGUGAGGGACCUGCUGACUAGGCUCUCUGGAACCCGGGCCGCCUGGCCCCUGGCAUUCUGAGGGGUGUGUGCUGCAGAGAGCAUUCAUUGUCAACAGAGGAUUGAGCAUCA: 0.149 ratio

Sample 3
Target: CCNF, cyclin fold, Cln2 fusion (human)
Method: yeast growth competition, sequencing
Medium: yeast
Notes: strong parent motif
Relative to: not given
Reading: higher = stronger binding
Endpoint: normalised enrichment score
Parent: CDC25A docking peptide (human); PPHRRRLLFACSP
P1N: 6.82
A10R: 6.74
R4C: 7.53
S12A: 7.17
A10W: 7.31
R6D: 0.799
R4M: 3.54
P13N: 8.04
R5W: 2.66
R5C: 1.37
R5S: 1.44
S12E: 8.31
H3I: 8.48
A10M: 8.05
P1S: 6.96
A10K: 6.8
R6T: 3.29
A10L: 7.73
P13T: 7.83
L8V: 7.79
P2G: 6.59
H3M: 7.87

Sample 4
Target: Centromere-binding protein 1, full length, N-terminal tag (CBF1, Saccharomyces cerevisiae, UniProt P17106, residues 1-351)
UniProt P17106, sequence (whole entry, looked up): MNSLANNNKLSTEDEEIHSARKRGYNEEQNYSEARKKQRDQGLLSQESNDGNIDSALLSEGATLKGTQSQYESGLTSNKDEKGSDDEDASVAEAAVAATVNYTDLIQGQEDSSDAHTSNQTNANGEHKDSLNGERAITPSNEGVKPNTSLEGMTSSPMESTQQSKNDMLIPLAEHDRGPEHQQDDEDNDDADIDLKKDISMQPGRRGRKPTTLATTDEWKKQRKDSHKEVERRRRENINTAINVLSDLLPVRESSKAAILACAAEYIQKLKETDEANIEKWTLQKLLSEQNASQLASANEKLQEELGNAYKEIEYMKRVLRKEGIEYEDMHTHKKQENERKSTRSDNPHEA
Method: protein-binding microarray
Form: double-stranded DNA, one strand shown
Medium: in vitro
Tested at: 0.8 µM
Notes: whole 60-bp probe, no competitor
Reading: higher = stronger binding
Endpoint: fluorescence intensity
GAACTTCTTATAATTGACGTCATAAAAAATATTTAGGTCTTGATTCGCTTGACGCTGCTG: 511 a.u.
CTAAGACAGTGACAAAACGTGATAGATTACATATTCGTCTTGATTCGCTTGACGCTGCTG: 1190 a.u.
CTAGTTACTAGTCTTAACATCATGTATAGTCTGTTCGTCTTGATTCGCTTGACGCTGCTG: 523 a.u.
CTAAGTTCTTCAGCAAACGTGATTTGCAAAACATTCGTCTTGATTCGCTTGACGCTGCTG: 1740 a.u.
CTAAACGTAACTTAGTATCACATGTATTAGTATTTCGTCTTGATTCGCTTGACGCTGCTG: 2140 a.u.
GAAGCTACTCCGGCCATCGTGGGTGACATTCGTTAGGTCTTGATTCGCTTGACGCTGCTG: 486 a.u.
GAACAAGAGACACGTCACGACACAACACGATGATAGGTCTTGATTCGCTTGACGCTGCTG: 780 a.u.
GAATCCAGTTCACATCAGTTGAGTAGAGAATAGTAGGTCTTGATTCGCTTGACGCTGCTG: 571 a.u.
GAATTTATTTCCCCTCATGATAAAACAAGATCTTAGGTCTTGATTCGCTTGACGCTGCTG: 547 a.u.
GAAGGGTGTGTGGGTGTGGTGTGGGTGTGGGTGTAGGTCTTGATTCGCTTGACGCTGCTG: 507 a.u.
CTAAGAACCAGTCATCAGACTAATGAAAGCTGATTCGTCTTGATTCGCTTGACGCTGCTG: 573 a.u.
GAACTATGGTACAAGCACGTTCGCCTCATTCATTAGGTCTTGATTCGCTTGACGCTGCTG: 526 a.u.
GAATATAGTCAAAGTCACGCCTATACACTTAATTAGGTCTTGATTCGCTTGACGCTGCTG: 896 a.u.
GAATTCGGATCACATCAGCTGTGAGAGTACGGTTAGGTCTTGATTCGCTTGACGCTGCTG: 573 a.u.
GAAAATGACTGTTATTTCCACGTGTCTTTCTATTAGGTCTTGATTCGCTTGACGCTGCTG: 2920 a.u.
CCTAACTACTATATGGTCATTTAATAGCTTCGTACAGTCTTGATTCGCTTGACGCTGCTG: 553 a.u.
GAAAAAGCTTACGCTGATGTAAGTAATGAGTAATAGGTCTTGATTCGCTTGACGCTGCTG: 532 a.u.
GAAACTTATTTAGAACACGTTCACACTGAGTAATAGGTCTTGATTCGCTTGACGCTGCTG: 692 a.u.
CTACATTCACGTTAAAACGTGTATGTTCGAATATTCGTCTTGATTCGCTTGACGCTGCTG: 614 a.u.
GAAAGCTATGTTTGCCACGTAGTAGCTACAATATAGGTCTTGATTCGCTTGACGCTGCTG: 498 a.u.
GAAAAACGTGAAAATATCCACGTGGAAGGTGAATAGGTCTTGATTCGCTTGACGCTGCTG: 3520 a.u.
CTAGGCCCTCACTTTTATCTGATGCAATTTCTATTCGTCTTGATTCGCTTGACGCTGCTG: 519 a.u.
GAAAGCGCTGCGAGGCACGTATCAGAAACAATGTAGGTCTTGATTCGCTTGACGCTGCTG: 513 a.u.
TGTACGAAGCTATGTGACCAGTTTATAGTAGTTAGGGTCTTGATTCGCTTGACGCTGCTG: 601 a.u.

Excerpt of the above (sample 4):
GAAACTTATTTAGAACACGTTCACACTGAGTAATAGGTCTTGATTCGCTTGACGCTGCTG: 692 a.u.
GAAAAAGCTTACGCTGATGTAAGTAATGAGTAATAGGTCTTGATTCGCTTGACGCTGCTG: 532 a.u.
CCTAACTACTATATGGTCATTTAATAGCTTCGTACAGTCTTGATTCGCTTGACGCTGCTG: 553 a.u.
TGTACGAAGCTATGTGACCAGTTTATAGTAGTTAGGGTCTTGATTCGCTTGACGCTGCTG: 601 a.u.
GAAAAACGTGAAAATATCCACGTGGAAGGTGAATAGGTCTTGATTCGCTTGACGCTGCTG: 3520 a.u.
